Results pooled from the literature.
Lines come from different studies, so protocols differ. Several values in a cell are separate wells, animals, samples, runs or records. ± marks the error that the study gave.
rep main protease: Replicase polyprotein 1ab, main protease (rep, Severe acute respiratory syndrome coronavirus 2, UniProt P0DTD1)

Nc1ncnc2c1ncn2[C@@H]1O[C@@H]2COP(=O)(O)O[C@H]3[C@@H](O)[C@H](n4cnc5c(=O)[nH]cnc54)O[C@@H]3COP(=O)(O)O[C@H]2[C@H]1O  pathway fold enrichment (HFF-1; RNA sequencing, item: Class A/1 receptors; upregulated pathway; baseline: Zika virus alone): 3.33
CC[C@H](C)[C@@H]([C@@H](CC(=O)N1CCC[C@H]1[C@H](OC)[C@@H](C)C(=O)N[C@H](C)[C@@H](O)c1ccccc1)OC)N(C)C(=O)[C@@H](NC(=O)[C@@H](NC)C(C)C)C(C)C  IC50 (NCI-H929; cell proliferation; 72 h): 0.565 nM
YFTSDYYQLYSTQLS  responding donors (human CD4 T cells; AIM; peptide): 8%
CC(C)C[C@H](NC(=O)[C@H](CC(=O)O)NC(=O)CNC(=O)[C@H](CCCNC(=N)N)NC(=O)[C@H](CC(C)C)NC(=O)[C@H](CC(N)=O)NC(=O)[C@@H]1CCCN1C(=O)[C@@H](NC(=O)[C@H](C)NC(=O)[C@H](CC(N)=O)NC(=O)CCOCCOCCOCCOCCOCCOCCOCCOCCOCCOCCOCCOCCOCCOCCOCCOCCOCCOCCOCCOCCOCCOCCOCCOCCOCCOCCOCCOCCNC(=O)CCOCCOCCOCCOCCOCCOCCOCCOCCOCCOCCOCCOCCOCCOCCOCCOCCOCCOCCOCCOCCOCCOCCOCCOCCOCCOCCOCCOCCNC(=O)c1ccc(F)cc1)C(C)C)C(=O)N[C@@H](CCC(N)=O)C(=O)N[C@H](C(=O)N[C@@H](CC(C)C)C(=O)N[C@@H](C)C(=O)N[C@@H](CCC(N)=O)C(=O)N[C@@H](CCCCN)C(=O)N[C@H](C(=O)N[C@@H](C)C(=O)N[C@@H](CCCNC(=N)N)C(=O)N[C@H](C(N)=O)[C@@H](C)O)C(C)C)C(C)C [fluorine-18 labelled]  cell-bound radioactivity (BxPC-3; concentration not given, 1 h, pH 7.2, serum-free medium): 25.8 ± 0.6%
CN(C)CCCN1c2ccccc2Sc2ccc(Cl)cc21  IC50 (A2780; cell growth or viability, neutral red; dark): 194000 nM
CCOP(=O)(OCC)Oc1ccc([N+](=O)[O-])cc1  lowest effective concentration (THP-1 macrophages; 2-AG and PG-G hydrolysis, inhibitor; 30 min pretreatment): 100 nM
LLWPVTLACFVLAAV  responding donors (human CD4 T cells; AIM; peptide): 17%
COc1cc2cc(c1Cl)N(C)C(=O)C[C@H](OC(=O)[C@H](C)N(C)C(=O)CCS)[C@]1(C)O[C@H]1[C@H](C)[C@@H]1C[C@@](O)(NC(=O)O1)[C@H](OC)/C=C/C=C(\C)C2  IC50 (PBMC; cytotoxicity): 42.2 nM
CN(C)CC[C@H](CSc1ccccc1)Nc1ccc(S(=O)(=O)NC(=O)c2ccc(N3CCN(Cc4ccccc4-c4ccc(Cl)cc4)CC3)cc2)cc1[N+](=O)[O-]  apoptosis (HMEC; 5 µM, pre-treatment, together with: ER stress inducers (brefeldin A, tunicamycin)): inhibited
O=C1CCC(N2C(=O)c3cccc4c(Cc5cnn(C6CCN(C(=O)C7(O)CCC7)CC6)c5)ccc2c34)C(=O)N1 (stereo not drawn)  IC50 (human PBMC; cytotoxicity): > 10000 nM
CNC(=O)[C@@H](NC(=O)[C@H](CC(C)C)[C@H](O)C(=O)NO)C(C)(C)C  IC50 (snake venom metalloproteinase; proteolytic activity, inhibitor; Daboia russelii, venom MH; together with: azocasein): 147 nM and 168 nM
AVITREVGFVVPGLP  responding donors (human CD4 T cells; AIM; peptide): 9%
N[C@@H](CC(=O)N1CCc2c(nc(C(F)(F)F)nc2C(F)(F)F)C1)CN1CC(F)(F)CCC1=O  inhibition (rep main protease; reporter gene (Gaussia luciferase), inhibitor; 20 µM): 0.655%
Nc1ncnc2c([C@@H]3N[C@H](CO)[C@@H](O)[C@H]3O)c[nH]c12  inhibition (Marburg virus; viral replication; HeLa, Musoke; 25 µM): 92%
CC[C@@]1(O)C(=O)OCc2c1cc1n(c2=O)Cc2c-1nc1cc(F)c(C)c3c1c2[C@@H](NC(=O)CO)CC3  IC50 (NCI-H929; cell proliferation; 72 h): 1.24 nM
FPRGQGVPINTNSSP  responding donors (human CD4 T cells; AIM; peptide): 8%
CCc1c2c(nc3ccc(O)cc13)-c1cc3c(c(=O)n1C2)COC(=O)[C@]3(O)CC  IC50 (PBMC; cytotoxicity): 61.7 nM
Cn1cnc(Cn2c(=O)[nH]/c(=N\c3cc4cn(C)nc4cc3Cl)n(Cc3cc(F)c(F)cc3F)c2=O)n1  patients with adverse event (human, moderate renal impairment; oral, 375 mg, vessel puncture site haemorrhage TEAE, Mild severity): 12.5%
C[C@]12CC[C@H](O)C[C@H]1CC[C@@H]1[C@@H]2CC[C@]2(C)[C@@H](C3=CC(=O)OC3)CC[C@]12O  IC50 (MDA-MB-231; cell migration, scratch wound): 260 nM
C[C@@H]1[C@H]2[C@H](O[C@@H]3O[C@H](CO)[C@@H](O)[C@H](O)[C@H]3O)OC=C(C(=O)O)[C@H]2C[C@@H]1O  Kd (Spike glycoprotein (Severe acute respiratory syndrome coronavirus 2, UniProt P0DTC2); binding, biolayer interferometry): 36900 nM
O=P(Oc1ccccc1)(Oc1ccccc1)Oc1ccccc1  ID50 (ES-D3; cardiomyocyte differentiation, embryonic stem cell test; day 10, exposure from day 3; 50% inhibition of beating): 143000 nM
CC[C@H](C)[C@H]1C(=O)N2CCC[C@H]2C(=O)O[C@H](C(C)(C)C)C[C@@H](C)C[C@H](O)[C@H](C)C2=N[C@@H](CCC(=O)N[C@@H](Cc3ccc(OC)cc3)C(=O)N(C)[C@@H](C)C(=O)N1C)CS2  number of affected cytokines (RAW264.7; cytokine secretion; concentration not given, 4 h preincubation, of 48 cytokines tested, together with: LPS 1 µg/mL for 8 h): 43
QEPKLGSLVVRCSFY  responding donors (human CD4 T cells; AIM; peptide): 9%
C[C@@H]1O[C@@H](O[C@H]2CC[C@]3(C=O)[C@H]4CC[C@]5(C)[C@@H](C6=CC(=O)OC6)CC[C@]5(O)[C@@H]4CC[C@]3(O)C2)[C@H](O)[C@H](O)[C@H]1O  MyBP-C level (MYBPC3 iPSC cardiomyocytes; plate-normalised; concentration not given, 24 h, hit retest): 9.2%
O=C(Nc1ccc(-c2nc3ccccc3o2)cc1)c1ccc(NC(=O)c2cc3ccccc3o2)cc1  inhibition (rep main protease; viral replication, Gluc reporter; SARS-CoV-2; 20 µM): 1.21%
CC[C@H](C)[C@H](NC(=O)[C@H](CC(C)C)NC(=O)[C@H](Cc1c[nH]c2ccccc12)NC(=O)[C@H](CCC(N)=O)NC(=O)[C@@H](NC(=O)[C@H](Cc1ccccc1)NC(=O)[C@H](C)NC(=O)[C@H](CCCCNC(=O)COCCOCCNC(=O)COCCOCCNC(=O)CC[C@H](NC(=O)CCCCCCCCCCCCCCCCCCC(=O)O)C(=O)O)NC(=O)[C@H](CCC(N)=O)NC(=O)[C@H](C)NC(=O)[C@@H](NC(=O)[C@H](CCCCN)NC(=O)[C@H](CC(=O)O)NC(=O)[C@H](CC(C)C)NC(=O)C(C)(C)NC(=O)[C@@H](NC(=O)[C@H](CO)NC(=O)[C@H](Cc1ccc(O)cc1)NC(=O)[C@H](CC(=O)O)NC(=O)[C@H](CO)NC(=O)[C@@H](NC(=O)[C@H](Cc1ccccc1)NC(=O)[C@@H](NC(=O)CNC(=O)[C@H](CCC(=O)O)NC(=O)C(C)(C)NC(=O)[C@@H](N)Cc1ccc(O)cc1)[C@@H](C)O)[C@@H](C)O)[C@@H](C)CC)[C@@H](C)CC)C(C)C)C(=O)N[C@@H](C)C(=O)NCC(=O)NCC(=O)N1CCC[C@H]1C(=O)N[C@@H](CO)C(=O)N[C@@H](CO)C(=O)NCC(=O)N[C@@H](C)C(=O)N1CCC[C@H]1C(=O)N1CCC[C@H]1C(=O)N1CCC[C@H]1C(=O)N[C@@H](CO)C(N)=O  subjects ADA-positive at baseline (item: anti-drug antibodies; patients with type 2 diabetes; 5/5/10/10 mg escalating, baseline, evaluable subjects): 8.3%
Kaliotoxin  TNF-alpha release (human iPSC-derived microglia; cytokine release, ELISA; 2 µM, together with: LPS): no effect
EIYQAGSTPCNGVEG  responding donors (human CD4 T cells; AIM; peptide): 8%
C[C@H]1O[C@@H](O[C@H]2[C@@H](O)C[C@H](O[C@H]3[C@@H](O)C[C@H](O[C@H]4CC[C@@]5(C)[C@H](CC[C@@H]6[C@@H]5CC[C@]5(C)[C@@H](C7=CC(=O)OC7)[C@@H](O)C[C@]65O)C4)O[C@@H]3C)O[C@@H]2C)C[C@H](O)[C@@H]1O  activity score (human iPSC-derived cardiomyocytes; MyBP-C/MYH ratio, plate-normalised SD score; concentration not given, primary screen; direction not given): 6.6
ITGGIAIAMACLVGL  responding donors (human CD4 T cells; AIM; peptide): 17%
CC(C)C[C@H](NC(=O)[C@H](CC(=O)O)NC(=O)CNC(=O)[C@H](CCCNC(=N)N)NC(=O)[C@H](CC(C)C)NC(=O)[C@H](CC(N)=O)NC(=O)[C@@H]1CCCN1C(=O)[C@@H](NC(=O)[C@H](C)NC(=O)[C@H](CC(N)=O)NC(=O)c1ccc(F)cc1)C(C)C)C(=O)N[C@@H](CCC(N)=O)C(=O)N[C@H](C(=O)N[C@@H](CC(C)C)C(=O)N[C@@H](C)C(=O)N[C@@H](CCC(N)=O)C(=O)N[C@@H](CCCCN)C(=O)N[C@H](C(=O)N[C@@H](C)C(=O)N[C@@H](CCCNC(=N)N)C(=O)N[C@H](C(N)=O)[C@@H](C)O)C(C)C)C(C)C [fluorine-18 labelled]  cell-bound radioactivity (DX3puroβ6; concentration not given, 1 h, pH 7.2, serum-free medium): 5.3 ± 0.8%
Nc1cccc2c1CN(C1CCC(=O)NC1=O)C2=O (stereo not drawn)  IC50 (human PBMC; cytotoxicity): > 10000 nM
LPDPSKPSKRSFIED  responding donors (human CD4 T cells; AIM; peptide): 8%

Repeated from above:
AVITREVGFVVPGLP  responding donors (human CD4 T cells; AIM; peptide): 9%
N[C@@H](CC(=O)N1CCc2c(nc(C(F)(F)F)nc2C(F)(F)F)C1)CN1CC(F)(F)CCC1=O  inhibition (rep main protease; reporter gene (Gaussia luciferase), inhibitor; 20 µM): 0.655%
Nc1ncnc2c([C@@H]3N[C@H](CO)[C@@H](O)[C@H]3O)c[nH]c12  inhibition (Marburg virus; viral replication; HeLa, Musoke; 25 µM): 92%
